# Assay results gathered from unrelated publications.
# A part holds a random share of what one study measured. Changes are numbered by the printed parent chain.
# Sequence of UniProt O15264 (whole entry, looked up): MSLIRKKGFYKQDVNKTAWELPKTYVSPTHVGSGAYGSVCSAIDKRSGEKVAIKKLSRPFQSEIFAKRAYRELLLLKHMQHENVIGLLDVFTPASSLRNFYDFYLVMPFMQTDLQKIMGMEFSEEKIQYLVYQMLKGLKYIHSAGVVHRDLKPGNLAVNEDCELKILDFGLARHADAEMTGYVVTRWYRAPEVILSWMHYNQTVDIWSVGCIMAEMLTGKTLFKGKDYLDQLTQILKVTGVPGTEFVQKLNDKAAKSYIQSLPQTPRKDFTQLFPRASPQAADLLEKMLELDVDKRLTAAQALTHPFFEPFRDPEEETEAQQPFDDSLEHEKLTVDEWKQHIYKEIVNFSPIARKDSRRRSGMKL
# Sequence of UniProt Q9Y243 (whole entry, looked up): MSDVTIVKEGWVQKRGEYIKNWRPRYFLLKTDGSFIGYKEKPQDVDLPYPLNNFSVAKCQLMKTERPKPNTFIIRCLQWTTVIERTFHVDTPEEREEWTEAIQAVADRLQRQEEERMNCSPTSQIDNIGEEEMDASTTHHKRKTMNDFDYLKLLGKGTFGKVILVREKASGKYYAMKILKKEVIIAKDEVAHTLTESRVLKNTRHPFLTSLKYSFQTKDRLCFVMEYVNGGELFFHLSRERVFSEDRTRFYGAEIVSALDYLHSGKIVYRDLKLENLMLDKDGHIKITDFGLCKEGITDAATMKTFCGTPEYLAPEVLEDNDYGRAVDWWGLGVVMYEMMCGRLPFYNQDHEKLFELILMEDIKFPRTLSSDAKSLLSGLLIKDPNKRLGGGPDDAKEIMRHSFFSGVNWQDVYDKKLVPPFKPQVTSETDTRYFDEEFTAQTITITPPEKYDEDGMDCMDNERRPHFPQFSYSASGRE
# Sequence of UniProt Q00536 (whole entry, looked up): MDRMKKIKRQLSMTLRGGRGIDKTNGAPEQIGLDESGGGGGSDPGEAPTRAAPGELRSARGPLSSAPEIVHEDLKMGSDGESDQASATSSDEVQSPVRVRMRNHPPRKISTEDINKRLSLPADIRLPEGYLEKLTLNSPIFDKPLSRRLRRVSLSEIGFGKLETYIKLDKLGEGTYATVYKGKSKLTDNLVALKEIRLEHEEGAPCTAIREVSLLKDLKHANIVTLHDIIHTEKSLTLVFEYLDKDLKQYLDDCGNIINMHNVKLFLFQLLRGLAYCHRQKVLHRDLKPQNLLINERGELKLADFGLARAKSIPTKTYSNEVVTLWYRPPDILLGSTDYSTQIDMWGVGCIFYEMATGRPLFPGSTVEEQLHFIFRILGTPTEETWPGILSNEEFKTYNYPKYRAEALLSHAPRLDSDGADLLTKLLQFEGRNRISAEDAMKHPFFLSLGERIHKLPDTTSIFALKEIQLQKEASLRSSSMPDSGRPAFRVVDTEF
# Sequence of UniProt Q9NQU5 (whole entry, looked up): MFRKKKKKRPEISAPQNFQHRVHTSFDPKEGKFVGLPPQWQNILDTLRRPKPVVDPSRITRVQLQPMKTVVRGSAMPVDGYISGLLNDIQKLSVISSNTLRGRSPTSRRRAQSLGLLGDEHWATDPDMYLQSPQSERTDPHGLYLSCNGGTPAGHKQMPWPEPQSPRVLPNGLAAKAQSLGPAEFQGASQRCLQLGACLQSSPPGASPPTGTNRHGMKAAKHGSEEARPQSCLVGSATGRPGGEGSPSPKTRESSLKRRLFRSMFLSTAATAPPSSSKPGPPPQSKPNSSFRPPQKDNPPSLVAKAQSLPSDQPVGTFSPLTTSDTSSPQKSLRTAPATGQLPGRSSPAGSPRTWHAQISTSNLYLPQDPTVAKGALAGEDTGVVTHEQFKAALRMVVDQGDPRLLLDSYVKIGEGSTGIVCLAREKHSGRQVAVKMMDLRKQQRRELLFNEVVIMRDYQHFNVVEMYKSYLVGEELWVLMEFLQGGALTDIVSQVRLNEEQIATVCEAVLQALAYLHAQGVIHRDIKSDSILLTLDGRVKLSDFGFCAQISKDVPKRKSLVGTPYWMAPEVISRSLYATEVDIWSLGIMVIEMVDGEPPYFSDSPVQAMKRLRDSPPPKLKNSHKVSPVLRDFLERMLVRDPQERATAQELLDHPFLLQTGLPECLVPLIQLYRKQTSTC
# Sequence of UniProt P11802 (whole entry, looked up): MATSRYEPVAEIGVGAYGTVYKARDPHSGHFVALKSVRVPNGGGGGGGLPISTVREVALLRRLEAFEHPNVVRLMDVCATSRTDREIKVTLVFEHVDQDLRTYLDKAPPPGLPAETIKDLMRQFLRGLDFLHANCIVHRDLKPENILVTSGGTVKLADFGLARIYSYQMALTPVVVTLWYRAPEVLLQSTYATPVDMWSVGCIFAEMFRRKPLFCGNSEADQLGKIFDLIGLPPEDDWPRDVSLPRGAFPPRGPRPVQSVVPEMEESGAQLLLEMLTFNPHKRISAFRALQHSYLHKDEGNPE

# Study 1 — read-out: enzyme activity; action: inhibitor; tested at: 0.5 µM; baseline: control
# Target: Serine/threonine-protein kinase Sgk1 (SGK1, Homo sapiens, UniProt O00141)
# Residues (O00141 1-431): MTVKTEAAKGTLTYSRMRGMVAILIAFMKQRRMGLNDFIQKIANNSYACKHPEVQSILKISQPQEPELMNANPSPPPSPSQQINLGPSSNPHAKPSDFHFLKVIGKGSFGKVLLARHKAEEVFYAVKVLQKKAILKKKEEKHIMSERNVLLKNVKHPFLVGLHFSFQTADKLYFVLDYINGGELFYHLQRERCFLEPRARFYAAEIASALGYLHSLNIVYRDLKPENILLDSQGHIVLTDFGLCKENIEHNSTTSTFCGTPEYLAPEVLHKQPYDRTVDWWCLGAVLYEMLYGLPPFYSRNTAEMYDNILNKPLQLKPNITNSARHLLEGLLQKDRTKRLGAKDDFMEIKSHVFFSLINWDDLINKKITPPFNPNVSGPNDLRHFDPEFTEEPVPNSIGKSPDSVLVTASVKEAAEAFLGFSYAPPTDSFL
Compound,remaining activity [%]
O=C1NC(=O)C(c2cn(CCCO)c3ncccc23)=C1c1cnccn1,91.2
Cc1nc(-c2ccccc2)c(-c2ccncc2)o1,99.3
Cn1c2ccccc2c2c3c(c4c5ccccc5n(CCC#N)c4c21)CNC3=O,79.1
CC(C)[C@H](CO)Nc1nc(Nc2cc(N)cc(Cl)c2)c2ncn(C(C)C)c2n1,93.1
Oc1ccc(-c2nc(-c3ccncc3)c(-c3ccc(F)cc3)[nH]2)cc1,101
Cc1ccc(NC(=O)c2ccc(CN3CCN(C)CC3)cc2)cc1Nc1nc(-c2cccnc2)cs1,111
Nc1ccc2ncnc(NCCc3ccc(Oc4ccccc4)cc3)c2c1,104
COc1ccc(C(=O)Nc2sc3c(c2C(N)=O)CCCC3)cc1OC,98.7
COc1ccc(CNC(=O)Nc2ncc([N+](=O)[O-])s2)cc1,105
O=C(Nc1cccc(Nc2cc(Nc3cccc(C(F)(F)F)c3)ncn2)c1)C1CC1,94.8
CNC(=O)c1cc(Oc2ccc(NC(=O)Nc3ccc(Cl)c(C(F)(F)F)c3)cc2)ccn1,95.2
O=S(=O)(c1cccc2cnccc12)N1CCCNCC1,96.6
Nc1[nH]nc2nc3ccccc3nc12,114
CO[C@H]1C[C@@H]2CC[C@@H](C)[C@@](O)(O2)C(=O)C(=O)N2CCCC[C@H]2C(=O)O[C@H]([C@H](C)C[C@@H]2CC[C@@H](O)[C@H](OC)C2)CC(=O)[C@H](C)/C=C(\C)[C@@H](O)[C@@H](OC)C(=O)[C@H](C)C[C@H](C)/C=C/C=C/C=C/1C,101
N#CC(C#N)=C(N)/C(C#N)=C/c1ccc(O)cc1,96.1

# Study 2 — method: aptamer microarray, sandwich; form: DNA with 2'F-ANA; matrix: in vitro; tested at: 200 nM; added: Cy3 exosite-II aptamer, 400 nM; direction: higher = stronger binding; oligonucleotide: GGTTGGTGTGGTTGG
# Target: Prothrombin, mature alpha-thrombin (F2, Homo sapiens, UniProt P00734)
# Notes: whole 15-mer aptamer, many near background
Modification,mean fluorescence intensity
2'F-ANA at 1 2 3 5 6 9 10 13 14 15,49.5 a.u.
2'F-ANA at 1 2 3 4 8 9 10 13 15,50.8 a.u.
2'F-ANA at 2 4 5 7 8 9 13 14,78.6 a.u.
2'F-ANA at 1 2 4 8 9 10 11 13 15,96.3 a.u.
2'F-ANA at 1 2 3 4 6 8 9 12 14,74.2 a.u.
2'F-ANA at 1 3 5 6 7 11 12 13 14,59.9 a.u.
2'F-ANA at 3 4 5 9 13 14 15,61 a.u.
2'F-ANA at 1 3 4 6 7 8 9 12 15,424 a.u.

# Study 3 — target: DBP, bZIP domain (human); method: DHFR protein complementation; matrix: yeast; baseline: wild-type JUN-FOS pair; direction: higher = stronger binding
# Notes: single substitutions, most at no-binding floor
# Starting sequence: JUN, bZIP domain (human); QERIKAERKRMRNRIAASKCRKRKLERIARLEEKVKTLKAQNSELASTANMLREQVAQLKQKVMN; partner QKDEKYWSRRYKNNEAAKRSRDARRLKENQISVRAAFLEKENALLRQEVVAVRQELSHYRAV
Substitution,binding fitness [natural log]
K34S,-1.4
R53T,-1.45
K36L,-1.49
A46R,-1.36
V56A,-1.38
L59H,-1.61
E54R,-1.41
S47Q,-1.4

# Study 4 — read-out: cell-free assay; method: competition with immobilised ligand; tested at: 1 µM
# SMILES: COc1cccc(CNC(=O)c2nc3scc(COCc4ccc(C(=O)O)cc4)c3c(=O)[nH]2)c1
target,remaining binding [%]
"CDK16 (Homo sapiens, UniProt Q00536)",91.9
"MAPK13 (Homo sapiens, UniProt O15264)",100
"AKT3 (Homo sapiens, UniProt Q9Y243)",84.8
"Cyclin-dependent kinase 4, with cyclin D1 (CDK4, Homo sapiens, UniProt P11802)",61.7
"Tyrosine-protein kinase ABL1, phosphorylated (ABL1, Homo sapiens, UniProt P00519, T315I)",77.5
"PAK6 (Homo sapiens, UniProt Q9NQU5)",100

# For quick reference, copied from above (study 2):
Modification,mean fluorescence intensity
2'F-ANA at 2 4 5 7 8 9 13 14,78.6 a.u.
2'F-ANA at 1 2 4 8 9 10 11 13 15,96.3 a.u.
2'F-ANA at 1 2 3 4 6 8 9 12 14,74.2 a.u.
2'F-ANA at 1 3 5 6 7 11 12 13 14,59.9 a.u.
